Published values of several laboratories.
Parts stem from different laboratories: compare values within a part only. Substitutions count along the parent as printed.

Study 1
Target: ABI1, truncated, D143A, DHFR fusion (Arabidopsis thaliana)
Technique: DHFR PCA, deep sequencing
Matrix: yeast
Notes: methotrexate growth selection, single substitutions
With: (+)-ABA 0 µM
Reference: wild-type fitted maximum
Reading: higher = stronger binding
Endpoint: relative binding score
Starting sequence: PYL1, truncated, DHFR fusion (Arabidopsis thaliana); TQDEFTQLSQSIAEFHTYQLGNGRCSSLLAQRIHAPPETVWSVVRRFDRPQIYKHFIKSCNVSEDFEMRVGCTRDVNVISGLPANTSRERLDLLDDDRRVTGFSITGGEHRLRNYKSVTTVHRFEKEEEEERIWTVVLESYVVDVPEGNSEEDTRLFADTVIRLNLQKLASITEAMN
M176D: 9.99%
R132M: 22.5%
V121A: 5.38%
T173C: 68.3%
R99V: -2.23%
S80Y: 61.5%
S42K: 20.3%
N165T: 9.11%
A175Q: 29%
H55W: 39.3%
V136R: -7.3%
H16W: 0.385%
D96G: 2.61%
T39L: 49.1%
R98W: 9.12%
S140I: -3.43%
R49D: -2.25%
E174K: 3.62%
V70P: 30.4%

Study 2
Target: FOSB, bZIP domain (human)
Technique: DHFR protein complementation
Matrix: yeast
Notes: single substitutions, most at no-binding floor
Reference: wild-type JUN-FOS pair
Reading: higher = stronger binding
Endpoint: binding fitness
Starting sequence: JUN, bZIP domain (human); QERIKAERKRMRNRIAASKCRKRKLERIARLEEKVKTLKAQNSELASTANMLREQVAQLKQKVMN; partner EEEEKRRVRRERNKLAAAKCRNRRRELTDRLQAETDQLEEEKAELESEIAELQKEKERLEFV
M51A: 0.0131 natural log
E32S: -0.0995 natural log
R53L: -0.834 natural log
E32T: -0.167 natural log
T37I: -0.121 natural log
A40Q: 0.129 natural log
Q55S: -0.327 natural log
R30E: 0.14 natural log
L31S: -0.596 natural log
K39N: -0.553 natural log
R30A: 0.19 natural log
V35M: -0.183 natural log
M51I: -0.108 natural log

Study 3
Target: CCND1, cyclin fold, Cln2 fusion (human)
Technique: yeast growth competition, sequencing
Matrix: yeast
Notes: weak parent motif
Reference: not given
Reading: higher = stronger binding
Endpoint: normalised enrichment score
Starting sequence: BRCA2 docking peptide (human); PSIKRNLLNEFDR
K4F: 0.165
F11L: 0.0859
I3A: 1.75
I3F: -0.00441
K4W: -0.526
R5Q: 0.222
K4Q: 0.0718
K4D: 0.258
N6I: -0.255
L8F: 0.543
E10I: 0.795
L7A: 0.171
L7G: -0.4
K4L: 0.489
P1M: -0.0475
L7H: -0.121
D12N: 0.542
S2C: 0.377
N9Y: 0.946
R13G: 0.968
I3N: 0.0168
I3Y: 0.612
F11R: 0.167
P1Y: 1.21
R13E: 1.37

Study 4
Target: Prothrombin, mature alpha-thrombin (F2, Homo sapiens, UniProt P00734)
Technique: aptamer microarray, sandwich
Form: DNA with 2'F-ANA
Matrix: in vitro
Tested at: 200 nM
Notes: whole 15-mer aptamer, many near background
With: Cy3 exosite-II aptamer, 400 nM
Reading: higher = stronger binding
Endpoint: mean fluorescence intensity
Strand: GGTTGGTGTGGTTGG
2'F-ANA at 1 3 6 9 11 12 14 15: 95 a.u.
2'F-ANA at 4 5 6 7 8 9 10 13 14 15: 47.6 a.u.
2'F-ANA at 3 6 9 10 13: 482 a.u.
2'F-ANA at 1 2 3 7 9 10 11 15: 62 a.u.
2'F-ANA at 2 3 8 10 12 13 15: 404 a.u.
2'F-ANA at 4 7 8 12: 786 a.u.
2'F-ANA at 1 2 3 4 5 12 13 14: 68.5 a.u.
2'F-ANA at 1 2 4 5 9 10 11 15: 70 a.u.
2'F-ANA at 2 3 4 5 7 9 11 12 13: 222 a.u.
2'F-ANA at 6 7 8 11 12 13 15: 604 a.u.
2'F-ANA at 3 4 11 14 15: 292 a.u.
2'F-ANA at 2 5 7 8 10 11 12 13 14 15: 54.3 a.u.
2'F-ANA at 2 5 6 8 9 10 12: 65.2 a.u.
2'F-ANA at 1 7 8 9 12 15: 488 a.u.
2'F-ANA at 3 7 8 9 10 11: 485 a.u.
2'F-ANA at 2 3 4 13 14: 303 a.u.
2'F-ANA at 3 5 6 9 11 14: 52.9 a.u.
2'F-ANA at 1 4 8 9 12 13 15: 184 a.u.
2'F-ANA at 1 4 7 8 10 12: 57.9 a.u.
2'F-ANA at 1 2 3 5 7 8 14 15: 47.5 a.u.
2'F-ANA at 2 5 7 8 10 11 12 14: 49.7 a.u.

Study 5
Target: RNA binding protein fox-1 homolog 2, RRM domain, GST-SBP tag (RBFOX2, Homo sapiens, UniProt O43251-10, residues 100-194)
Technique: RNA Bind-n-Seq
Form: RNA
Matrix: in vitro
Tested at: 365 nM
Notes: natural RNA segment, single round, ends assumed
Reference: no-protein control
Reading: higher = stronger binding
Endpoint: RBNS enrichment (R)
Constant ends, left off below: GGGAGUUCUACAGUCCGACGAUC … UGGAAUUCUCGGGUGCCAA
Residues (chain): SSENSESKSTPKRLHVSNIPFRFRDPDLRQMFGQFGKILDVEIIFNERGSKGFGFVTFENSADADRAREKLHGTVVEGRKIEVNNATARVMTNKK
GUUCAUUCUUAGAACCAAGGGAAAUACUGCUCCCCCCAUUUGCUGACGUAGUGCUCUCAUGGGCUCACCUGGGCCCAAGGCACAGCCAGGGCACAGUUAGGCCUGGAUGU: 0.341
ACACAAAGCAACCCAAAGGCUUUUCCCUGGAAAAGCUCUUUCUUACCUAAAGAUAAAACCAAUUCACAAACUGAAGGUAGCUUUUUAUUACUCCGUGGGGAGCAUGUACA: 20.5
UUCCUUGGACAGUAGCAACUAGUCAGAAGACCAUCCAAGAUAGAUGCAGCUGAUACAUUCUUUUCAGCUUCUUAUUGAUGAUUGUAGAUAGAAAAAUCCUUGUUUAUUCU: 0.219
AUGUUAGGAUGGCCACGAAUGCUUGGUCAGAGUCCUUCCUUCCCUUGCUCAGCAGCGGACUUACUCCCAGCGCCUUCCCUCCCUCCUGUCCCUCCUGUCCCCUCACUGUC: 3.41
CUUGAGGUGGCCUCCUUGCUUGUUACAUACCUGGGUAUGUGUAGGCAGUUUAGUGCAUCUUUGCCUCUCGGUUGAAACCUGUAUAACCCUGUUACAAAGCUGUGUUGUUG: 0.709
ACUGUAAUAUUUCAAGUGUAUGCAGUAGAAUGUACUGUAACUGAGCCCUUUCCCACAUGUCUAGGCUCCAAUGUCUCCUGUAGGUCCACCUAACUGUGUGUUUUCAGGGA: 0.357
GAGAGCCAACCUAUAGUUUAACAGCUUAGGUAAGACUCACUCUGCCCAUGCUGGCCAGGGGAACCCUCAGGGGACUCCUCUGGGUGAAGGGCAGAUGCUAGCACUGCCUG: 0.221
UGAAGAGAAGCAGCAGAAGCCACAUUCAAGUGAGAGCACAAGUGCUCUGUGGAAAGGCAGUAUCUCUGGUGGGGACGCUGGUCCACAUCGGCCUCUGCUUGUACAUCCAU: 0.263
CAUGCUUCCAUAUAUAUUACCCUGAACUUUCUAUCACCACAGAUAAAGAUUUUGUUUUGCCCUGCAAAUAAAAAGACAAUUCCUUAUUGUCUGAAUGUAAUACAGUCUUC: 0.818
AUAUUUGAUAAUUAUAUUUGUAUUUCACCACCUAAAUGUAAUGUUGAUUCCUCAAGAAUGAAAUGAAGGCACUACAUUGAAAUAUGUUUUGUAUAAAUUUGUCAUGUUGA: 0.543
CAAAAUAAAUUUCUGAAUUAUGCAUCAUAAAGCUUUGAAAUUUCUUUUUUAAUUGAUGGGAUACUAACCUUAAAUUCUAGCGUUGGUGCUUUGCACCAAGAGAAAGCUUU: 1.35
CAAAGCAAUUUUUUUUAUUACUAAACAAGGUUUUUAUGAAUAAUAGCAUUGAUAUAUAUAUAUUAUAUAUCACCCUUUAGAUCUUGAUUUCUUGGUCAUUUCUCAACCUG: 0.696

Excerpt of the above (study 1):
S80Y: 61.5%
S42K: 20.3%
N165T: 9.11%
A175Q: 29%
H55W: 39.3%
V136R: -7.3%
H16W: 0.385%
D96G: 2.61%
